Earlier results that unrelated publications cite.
Each numbered part shows a few of the values that one paper quotes. Several values in a cell are separate wells, animals, samples, runs or records.

Study 1
Organism: Cryptosporidium parvum
Method: high-throughput screen
Concentration: concentration not given
SMILES | activity
CS(=O)(=O)c1ccc(-c2cc(Br)sc2-c2ccc(F)cc2)cc1 | inactive
COC1=C(OC)C(=O)C(CCCCCCCCCCO)=C(C)C1=O | inactive
COC(=O)CCc1ccc(OCC(O)CNC(C)C)cc1 (stereo not shown) | inactive

Single results of other studies
SMILES | tested on | assay | system | setting | endpoint | value
CN1CCN(C(=O)C(C)(C)c2ccc(C(=O)Nc3cn4cc(-c5ccncc5)ccc4n3)cc2)CC1 | CLK4 (human) | cellular activity | – | – | IC50 | 1.98 nM
COC(=O)[C@H](Cc1ccccc1)NC(=O)[C@@H](N)CC(=O)O | – | sensory evaluation | human sensory panel, water | – | detection threshold | 22.4 µM
COc1ccc2c(c1)O[C@H](c1ccc(OC)c(OC)c1)C[C@@H]2NC(=O)C1(c2ccc3c(c2)OC(F)(F)O3)CC1 (single isomer, unassigned) | CFTR | cellular activity | – | – | EC50 | 28 nM
OC[C@H]1O[C@H](O[C@]2(CCl)O[C@H](CCl)[C@@H](O)[C@@H]2O)[C@H](O)[C@@H](O)[C@H]1Cl | – | sensory evaluation | human sensory panel, water | – | detection threshold | 13 µM and 8.77 µM
O=C(c1ccc(F)cc1)N1CC(COc2ccc(Br)cc2)(C(=O)O)C1 | PTGER2 (human) | enzyme activity | – | – | IC50 | 1300 nM
CC(C)(C)c1cc(C(C)(C)C)c(NC(=O)c2c[nH]c3ccccc3c2=O)cc1O | CFTR | potentiator | – | – | EC90 | 700 nM
Cc1cc(Nc2nccc(C)n2)cc(-c2cnc([C@@]3(O)CC[C@H](C(=O)O)C(C)(C)C3)s2)c1 | FER | – | – | kinase panel | IC50 | 232 nM

For quick reference, copied from above (single results of other studies):
SMILES | tested on | assay | system | setting | endpoint | value
Cc1cc(Nc2nccc(C)n2)cc(-c2cnc([C@@]3(O)CC[C@H](C(=O)O)C(C)(C)C3)s2)c1 | FER | – | – | kinase panel | IC50 | 232 nM
